Published values collected from several papers.
Numbered parts are unrelated; each lists some results of a single study. Values joined by “and” are separate records of one study, mostly repeats; a detail may differ.
Sequence of UniProt P54132 (whole entry, looked up): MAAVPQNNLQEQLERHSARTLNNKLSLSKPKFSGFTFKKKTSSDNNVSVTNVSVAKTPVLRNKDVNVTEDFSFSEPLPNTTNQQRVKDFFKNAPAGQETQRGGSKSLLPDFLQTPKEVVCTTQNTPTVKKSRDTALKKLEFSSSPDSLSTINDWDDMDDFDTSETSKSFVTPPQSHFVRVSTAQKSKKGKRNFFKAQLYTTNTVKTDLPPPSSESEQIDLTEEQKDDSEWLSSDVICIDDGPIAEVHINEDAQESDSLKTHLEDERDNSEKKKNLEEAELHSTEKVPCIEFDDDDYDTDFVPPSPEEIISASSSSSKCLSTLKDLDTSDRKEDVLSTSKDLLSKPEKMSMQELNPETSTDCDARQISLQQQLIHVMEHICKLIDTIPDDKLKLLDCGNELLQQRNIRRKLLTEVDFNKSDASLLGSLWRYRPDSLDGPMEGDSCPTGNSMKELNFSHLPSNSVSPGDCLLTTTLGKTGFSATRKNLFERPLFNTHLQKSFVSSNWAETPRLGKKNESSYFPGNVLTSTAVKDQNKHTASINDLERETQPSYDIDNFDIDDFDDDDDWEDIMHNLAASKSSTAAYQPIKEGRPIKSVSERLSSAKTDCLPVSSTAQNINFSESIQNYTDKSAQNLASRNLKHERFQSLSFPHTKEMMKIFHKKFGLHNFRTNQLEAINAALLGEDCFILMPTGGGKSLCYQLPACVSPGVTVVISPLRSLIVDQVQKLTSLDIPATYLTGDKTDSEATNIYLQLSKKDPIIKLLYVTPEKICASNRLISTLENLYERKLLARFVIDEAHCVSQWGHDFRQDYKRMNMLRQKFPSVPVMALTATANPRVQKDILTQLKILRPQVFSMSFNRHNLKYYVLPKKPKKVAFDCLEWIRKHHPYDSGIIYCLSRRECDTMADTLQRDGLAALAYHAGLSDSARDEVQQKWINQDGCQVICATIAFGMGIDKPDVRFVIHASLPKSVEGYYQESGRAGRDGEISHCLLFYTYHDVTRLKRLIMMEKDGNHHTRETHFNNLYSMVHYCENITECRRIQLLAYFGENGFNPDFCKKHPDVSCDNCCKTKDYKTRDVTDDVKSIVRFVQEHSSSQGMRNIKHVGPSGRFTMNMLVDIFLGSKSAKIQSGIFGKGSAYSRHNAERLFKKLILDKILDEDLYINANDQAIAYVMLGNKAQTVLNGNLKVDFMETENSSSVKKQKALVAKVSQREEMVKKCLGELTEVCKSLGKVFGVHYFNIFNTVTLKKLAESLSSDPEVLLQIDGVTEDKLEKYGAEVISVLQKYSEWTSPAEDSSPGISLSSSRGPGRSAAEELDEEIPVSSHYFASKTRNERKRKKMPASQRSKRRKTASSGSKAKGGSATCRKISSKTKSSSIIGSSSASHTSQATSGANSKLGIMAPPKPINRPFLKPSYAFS
Sequence of UniProt Q15759 (whole entry, looked up): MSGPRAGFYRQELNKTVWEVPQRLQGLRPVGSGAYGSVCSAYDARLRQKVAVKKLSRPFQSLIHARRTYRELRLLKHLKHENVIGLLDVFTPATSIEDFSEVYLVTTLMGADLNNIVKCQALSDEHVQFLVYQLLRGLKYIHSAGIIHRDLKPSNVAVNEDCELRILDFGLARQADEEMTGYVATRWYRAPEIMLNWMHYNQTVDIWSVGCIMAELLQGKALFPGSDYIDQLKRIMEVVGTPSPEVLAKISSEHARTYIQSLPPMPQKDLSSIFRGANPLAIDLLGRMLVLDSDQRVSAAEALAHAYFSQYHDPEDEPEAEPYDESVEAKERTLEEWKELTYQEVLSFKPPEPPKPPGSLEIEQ
Sequence of UniProt Q9HAZ1 (whole entry, looked up): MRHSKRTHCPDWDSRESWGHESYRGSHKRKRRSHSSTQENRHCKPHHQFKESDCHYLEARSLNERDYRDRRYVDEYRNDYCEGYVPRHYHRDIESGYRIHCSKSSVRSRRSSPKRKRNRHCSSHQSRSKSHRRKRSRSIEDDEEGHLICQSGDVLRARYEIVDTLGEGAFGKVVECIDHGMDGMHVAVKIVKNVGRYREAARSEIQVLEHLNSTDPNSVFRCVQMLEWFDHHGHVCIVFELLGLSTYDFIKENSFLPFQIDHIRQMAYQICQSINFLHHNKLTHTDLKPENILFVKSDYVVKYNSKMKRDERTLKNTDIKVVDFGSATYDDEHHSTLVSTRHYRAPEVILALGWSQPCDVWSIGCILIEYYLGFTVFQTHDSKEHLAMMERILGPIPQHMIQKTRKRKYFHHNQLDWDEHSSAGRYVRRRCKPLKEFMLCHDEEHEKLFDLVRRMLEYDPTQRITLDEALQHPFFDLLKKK
Sequence of UniProt P28482 (whole entry, looked up): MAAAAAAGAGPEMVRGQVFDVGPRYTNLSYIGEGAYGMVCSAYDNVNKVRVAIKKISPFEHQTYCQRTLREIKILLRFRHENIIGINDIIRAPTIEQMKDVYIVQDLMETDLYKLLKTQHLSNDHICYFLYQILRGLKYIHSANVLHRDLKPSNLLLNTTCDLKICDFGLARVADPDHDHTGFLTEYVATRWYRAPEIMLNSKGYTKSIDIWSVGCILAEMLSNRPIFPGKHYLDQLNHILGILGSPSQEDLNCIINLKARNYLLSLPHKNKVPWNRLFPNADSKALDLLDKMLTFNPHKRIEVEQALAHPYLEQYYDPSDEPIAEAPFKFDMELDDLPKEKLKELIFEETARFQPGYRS
Sequence of UniProt Q7KZI7 (whole entry, looked up): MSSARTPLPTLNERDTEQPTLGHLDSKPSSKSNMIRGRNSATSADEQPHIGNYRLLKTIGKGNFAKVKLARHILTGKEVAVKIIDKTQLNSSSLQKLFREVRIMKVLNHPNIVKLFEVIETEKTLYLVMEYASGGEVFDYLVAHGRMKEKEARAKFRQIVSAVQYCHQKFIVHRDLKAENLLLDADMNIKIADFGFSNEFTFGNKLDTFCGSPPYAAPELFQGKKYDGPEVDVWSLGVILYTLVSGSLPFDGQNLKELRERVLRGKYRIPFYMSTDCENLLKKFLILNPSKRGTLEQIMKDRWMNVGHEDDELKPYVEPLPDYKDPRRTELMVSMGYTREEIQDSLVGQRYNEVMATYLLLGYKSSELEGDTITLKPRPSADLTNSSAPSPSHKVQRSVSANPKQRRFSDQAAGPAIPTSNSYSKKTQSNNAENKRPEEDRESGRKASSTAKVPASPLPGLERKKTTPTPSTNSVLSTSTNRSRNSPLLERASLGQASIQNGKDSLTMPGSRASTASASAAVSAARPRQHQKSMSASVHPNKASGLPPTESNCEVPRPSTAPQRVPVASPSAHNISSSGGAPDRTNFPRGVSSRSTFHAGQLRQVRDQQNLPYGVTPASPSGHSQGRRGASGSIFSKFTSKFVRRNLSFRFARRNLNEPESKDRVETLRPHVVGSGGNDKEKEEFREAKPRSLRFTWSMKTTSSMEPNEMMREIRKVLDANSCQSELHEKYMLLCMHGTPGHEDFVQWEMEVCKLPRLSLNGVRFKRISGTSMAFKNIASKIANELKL
Sequence of UniProt Q13237 (whole entry, looked up): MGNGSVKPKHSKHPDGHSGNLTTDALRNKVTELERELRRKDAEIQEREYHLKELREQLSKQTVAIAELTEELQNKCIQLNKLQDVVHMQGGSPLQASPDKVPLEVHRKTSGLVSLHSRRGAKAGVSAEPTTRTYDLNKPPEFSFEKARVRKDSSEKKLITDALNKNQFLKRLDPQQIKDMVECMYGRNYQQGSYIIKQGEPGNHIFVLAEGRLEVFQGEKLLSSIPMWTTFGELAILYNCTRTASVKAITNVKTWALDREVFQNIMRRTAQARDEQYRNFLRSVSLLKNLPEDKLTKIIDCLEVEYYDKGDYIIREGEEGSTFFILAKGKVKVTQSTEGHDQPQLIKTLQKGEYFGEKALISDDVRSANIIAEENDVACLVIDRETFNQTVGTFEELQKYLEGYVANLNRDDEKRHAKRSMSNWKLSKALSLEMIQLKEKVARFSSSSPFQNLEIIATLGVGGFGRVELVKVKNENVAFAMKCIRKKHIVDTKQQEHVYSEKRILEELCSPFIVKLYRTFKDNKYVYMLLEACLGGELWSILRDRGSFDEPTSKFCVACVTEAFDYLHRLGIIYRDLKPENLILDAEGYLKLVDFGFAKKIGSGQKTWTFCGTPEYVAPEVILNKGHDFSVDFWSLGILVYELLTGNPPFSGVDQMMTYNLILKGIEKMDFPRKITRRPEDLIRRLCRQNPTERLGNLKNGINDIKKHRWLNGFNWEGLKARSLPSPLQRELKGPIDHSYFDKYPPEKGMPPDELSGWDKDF
Sequence of UniProt Q9H4B4 (whole entry, looked up): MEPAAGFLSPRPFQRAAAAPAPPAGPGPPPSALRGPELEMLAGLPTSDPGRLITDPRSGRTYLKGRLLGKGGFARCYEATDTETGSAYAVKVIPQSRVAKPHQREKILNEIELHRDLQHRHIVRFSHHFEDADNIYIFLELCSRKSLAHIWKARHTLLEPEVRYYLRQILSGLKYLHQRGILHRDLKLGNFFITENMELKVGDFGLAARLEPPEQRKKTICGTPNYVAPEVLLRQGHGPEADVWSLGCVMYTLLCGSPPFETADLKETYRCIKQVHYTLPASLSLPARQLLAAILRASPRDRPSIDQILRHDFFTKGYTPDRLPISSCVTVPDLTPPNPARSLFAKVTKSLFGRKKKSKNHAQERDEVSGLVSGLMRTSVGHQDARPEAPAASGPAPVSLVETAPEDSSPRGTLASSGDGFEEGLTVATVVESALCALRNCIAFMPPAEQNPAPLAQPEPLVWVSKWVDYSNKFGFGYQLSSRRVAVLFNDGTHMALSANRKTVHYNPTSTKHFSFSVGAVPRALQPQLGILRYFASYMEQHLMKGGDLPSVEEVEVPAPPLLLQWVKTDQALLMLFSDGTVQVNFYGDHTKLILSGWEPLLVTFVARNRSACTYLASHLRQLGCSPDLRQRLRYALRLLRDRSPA

Block 1
SMILES: O=C(Nc1ccccc1)Nc1cccc(Oc2ccc3nccn3n2)c1
Tested at: 1 µM
For SGK3 (Homo sapiens, UniProt Q96BR1); competitive binding panel; baseline: vehicle: remaining binding read 91%.
BMP2K (Homo sapiens, UniProt Q9NSY1); competitive binding; BIKE — remaining binding: 100%.
It gave 100% for remaining binding (EPHB1 (Homo sapiens, UniProt P54762); competitive binding panel; baseline: vehicle).
The remaining binding was 100% (Myosin-IIIa (MYO3A, Homo sapiens, UniProt Q8NEV4); competitive binding panel; baseline: vehicle).
The remaining binding was 100% (GSK3B (Homo sapiens, UniProt P49841); competitive binding panel; baseline: vehicle).
FGFR1 (Homo sapiens, UniProt P11362); competitive binding panel; baseline: vehicle — remaining binding: 87%.

Block 2
SMILES: Cc1cc(Nc2nc(-c3ccccc3)nc3ccccc23)n[nH]1
Read-out: enzyme activity
Mode: inhibitor
Tested at: 0.5 µM
Baseline: control
It gave 89.6% for remaining activity (MARK2 (Homo sapiens, UniProt Q7KZI7)).
CDC42BPB (Homo sapiens, UniProt Q9Y5S2) — remaining activity: 87.1%.
MAPK11 (Homo sapiens, UniProt Q15759) — remaining activity: 96.8%.
PRKG2 (Homo sapiens, UniProt Q13237) — remaining activity: 98.2%.
MAPK14 (Homo sapiens, UniProt Q16539) — remaining activity: 103%.
It gave 87.4% for remaining activity (DCLK2 (Homo sapiens, UniProt Q8N568)).
MAPK1 (Homo sapiens, UniProt P28482) — remaining activity: 89.3%.
For MAP2K1 (Homo sapiens, UniProt Q02750): remaining activity read 91.6%.
For CLK4 (Homo sapiens, UniProt Q9HAZ1): remaining activity read 34.3%.
DDR2 (Homo sapiens, UniProt Q16832) — remaining activity: 93.2%.
It gave 83.5% for remaining activity (MARK4 (Homo sapiens, UniProt Q96L34)).
For PLK3 (Homo sapiens, UniProt Q9H4B4): remaining activity read 88.3%.
For CAMK4 (Homo sapiens, UniProt Q16566): remaining activity read 94.1%.
The remaining activity was 95% (Cyclin-dependent kinase 1, with cyclin A (CDK1, Homo sapiens, UniProt P06493)).

Block 3
Cell line: normal organoid sample H
Method: CellTiter-Glo
Host: human
Matrix: normal-adjacent epithelium
Tested at: 1 µM
Baseline: DMSO
`Cc1ccc2[nH]c(CNCCCc3ccncc3)cc(=O)c2c1` has a viability of 126% and 97.9%.
For `CNCc1ccccc1-c1csc([C@@H](C)Nc2nc(C)nc3cc(OC)c(OC)cc23)c1`, the viability was 64.5%.
The viability of `Cn1cc(Cl)c2c(Oc3c(F)cc(Nc4cc(Cl)nc(N)n4)cc3F)ccnc21` is reported as 118% and 93%.
The viability of `C[C@@H]1CN(c2cc(-c3nn(C)c4ccc(OC5(C)CC5)cc34)ncn2)C[C@H](C)O1` is reported as 95.6%.
The viability of `O=C(O)c1cc(-c2ccc(C3CCNCC3)cc2)c2ccc(-c3ccc(C(F)(F)F)cc3)cc2c1` is reported as 112% and 102%.
The viability of `O=C(Nc1cnc(Oc2ccc(F)cc2)nc1)N1CCc2ncccc2[C@@H]1c1ccc(F)cc1` is reported as 108% and 125%.
`CN(C)CC#Cc1ccc(OCCCc2sc(N3CCc4cccc(C(=O)Nc5nc6ccccc6s5)c4C3)nc2C(=O)O)c(F)c1` gave a viability of 139% and 111%.

Mixed results
For `CO[C@@H]1[C@@H](OC(N)=O)[C@@H](O)[C@H](Oc2ccc3c(O)c(NC(=O)c4ccc(O)c(CC=C(C)C)c4)c(=O)oc3c2C)OC1(C)C`, the remaining activity was 88.4% and 63.7% and 47.6% and 81.9% and 90.4% and 84.2% (RecQ-like DNA helicase BLM (BLM, Homo sapiens, UniProt P54132); ATPase activity, ADP-Glo; 100 µM; baseline: DMSO).

For quick reference, copied from above (block 1):
For SGK3 (Homo sapiens, UniProt Q96BR1); competitive binding panel; baseline: vehicle: remaining binding read 91%.
BMP2K (Homo sapiens, UniProt Q9NSY1); competitive binding; BIKE — remaining binding: 100%.
It gave 100% for remaining binding (EPHB1 (Homo sapiens, UniProt P54762); competitive binding panel; baseline: vehicle).
The remaining binding was 100% (Myosin-IIIa (MYO3A, Homo sapiens, UniProt Q8NEV4); competitive binding panel; baseline: vehicle).
